Results collected from several papers.
Lines come from different studies, so protocols differ. “And” joins repeats or separate records; there may be more than shown. pIC50: −log10 of the molar value.
PPARG: Peroxisome proliferator-activated receptor gamma (PPARG, Homo sapiens, UniProt P37231)
UniProt P37231, sequence (whole entry, looked up): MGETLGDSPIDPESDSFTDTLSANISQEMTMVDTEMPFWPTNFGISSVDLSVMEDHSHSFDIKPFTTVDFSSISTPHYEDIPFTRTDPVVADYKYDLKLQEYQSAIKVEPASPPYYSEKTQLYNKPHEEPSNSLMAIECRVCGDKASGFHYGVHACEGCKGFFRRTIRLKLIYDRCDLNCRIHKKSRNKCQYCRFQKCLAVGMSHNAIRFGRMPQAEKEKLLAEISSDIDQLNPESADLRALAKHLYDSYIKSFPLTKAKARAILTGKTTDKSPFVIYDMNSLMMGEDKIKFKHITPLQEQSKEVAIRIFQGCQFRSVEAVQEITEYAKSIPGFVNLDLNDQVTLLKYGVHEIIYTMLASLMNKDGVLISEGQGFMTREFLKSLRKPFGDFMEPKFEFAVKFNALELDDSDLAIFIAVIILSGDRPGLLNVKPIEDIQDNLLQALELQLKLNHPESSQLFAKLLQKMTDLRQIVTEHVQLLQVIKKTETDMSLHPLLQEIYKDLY
Rhomboid protease AarA: Rhomboid protease AarA (Providencia stuartii, UniProt P46116)
UniProt P51681, sequence (whole entry, unmodified, looked up): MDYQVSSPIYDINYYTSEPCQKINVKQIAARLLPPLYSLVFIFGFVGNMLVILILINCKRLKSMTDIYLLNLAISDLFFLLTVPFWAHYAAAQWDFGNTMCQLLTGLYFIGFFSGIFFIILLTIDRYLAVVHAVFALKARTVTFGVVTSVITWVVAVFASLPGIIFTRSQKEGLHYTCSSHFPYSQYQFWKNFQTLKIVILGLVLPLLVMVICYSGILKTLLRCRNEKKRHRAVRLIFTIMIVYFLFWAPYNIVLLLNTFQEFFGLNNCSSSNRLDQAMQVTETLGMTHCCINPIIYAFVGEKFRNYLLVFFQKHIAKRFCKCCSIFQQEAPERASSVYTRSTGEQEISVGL
UniProt P46116, sequence (whole entry, looked up): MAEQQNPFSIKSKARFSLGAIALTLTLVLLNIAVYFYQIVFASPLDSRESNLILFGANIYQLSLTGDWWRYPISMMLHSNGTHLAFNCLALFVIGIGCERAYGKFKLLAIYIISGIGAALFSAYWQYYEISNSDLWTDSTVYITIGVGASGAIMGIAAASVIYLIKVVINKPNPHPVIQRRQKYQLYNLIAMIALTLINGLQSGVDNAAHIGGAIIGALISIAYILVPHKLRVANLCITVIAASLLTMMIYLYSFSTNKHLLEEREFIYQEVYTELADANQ
UniProt O96028, sequence (whole entry, looked up): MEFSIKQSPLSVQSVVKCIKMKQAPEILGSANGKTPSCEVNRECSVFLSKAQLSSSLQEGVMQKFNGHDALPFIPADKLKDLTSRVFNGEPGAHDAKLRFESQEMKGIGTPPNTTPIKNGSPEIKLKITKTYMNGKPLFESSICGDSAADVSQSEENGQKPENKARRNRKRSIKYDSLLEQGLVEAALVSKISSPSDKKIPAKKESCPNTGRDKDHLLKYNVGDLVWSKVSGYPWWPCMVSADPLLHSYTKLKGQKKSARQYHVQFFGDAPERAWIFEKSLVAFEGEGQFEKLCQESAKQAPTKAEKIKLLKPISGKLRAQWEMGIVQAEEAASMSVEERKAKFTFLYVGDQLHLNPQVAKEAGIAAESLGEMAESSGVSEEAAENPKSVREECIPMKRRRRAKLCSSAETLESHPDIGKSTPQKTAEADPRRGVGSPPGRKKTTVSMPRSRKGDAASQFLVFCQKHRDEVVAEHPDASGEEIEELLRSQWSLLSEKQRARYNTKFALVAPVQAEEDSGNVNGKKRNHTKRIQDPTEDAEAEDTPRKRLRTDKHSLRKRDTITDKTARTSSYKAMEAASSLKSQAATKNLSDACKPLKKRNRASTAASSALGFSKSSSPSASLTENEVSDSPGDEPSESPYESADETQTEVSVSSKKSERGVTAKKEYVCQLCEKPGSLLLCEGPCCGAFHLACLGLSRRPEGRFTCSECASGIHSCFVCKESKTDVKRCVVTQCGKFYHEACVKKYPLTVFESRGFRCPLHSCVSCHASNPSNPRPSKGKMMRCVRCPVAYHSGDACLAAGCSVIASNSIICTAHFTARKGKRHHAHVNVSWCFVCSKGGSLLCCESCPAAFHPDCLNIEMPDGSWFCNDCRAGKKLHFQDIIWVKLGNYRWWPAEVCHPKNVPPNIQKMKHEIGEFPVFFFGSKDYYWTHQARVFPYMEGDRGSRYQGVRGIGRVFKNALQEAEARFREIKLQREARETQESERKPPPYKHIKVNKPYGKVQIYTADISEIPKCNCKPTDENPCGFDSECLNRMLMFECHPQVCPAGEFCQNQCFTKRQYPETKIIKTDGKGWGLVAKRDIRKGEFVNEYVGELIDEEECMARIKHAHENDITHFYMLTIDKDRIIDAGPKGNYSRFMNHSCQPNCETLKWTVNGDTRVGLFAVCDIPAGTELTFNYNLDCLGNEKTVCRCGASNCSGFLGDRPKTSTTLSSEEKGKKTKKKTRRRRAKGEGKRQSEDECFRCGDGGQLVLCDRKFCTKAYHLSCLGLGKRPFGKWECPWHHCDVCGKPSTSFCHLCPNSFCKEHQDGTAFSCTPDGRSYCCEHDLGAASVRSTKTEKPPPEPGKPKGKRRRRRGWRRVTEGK
UniProt P41143, sequence (whole entry, looked up): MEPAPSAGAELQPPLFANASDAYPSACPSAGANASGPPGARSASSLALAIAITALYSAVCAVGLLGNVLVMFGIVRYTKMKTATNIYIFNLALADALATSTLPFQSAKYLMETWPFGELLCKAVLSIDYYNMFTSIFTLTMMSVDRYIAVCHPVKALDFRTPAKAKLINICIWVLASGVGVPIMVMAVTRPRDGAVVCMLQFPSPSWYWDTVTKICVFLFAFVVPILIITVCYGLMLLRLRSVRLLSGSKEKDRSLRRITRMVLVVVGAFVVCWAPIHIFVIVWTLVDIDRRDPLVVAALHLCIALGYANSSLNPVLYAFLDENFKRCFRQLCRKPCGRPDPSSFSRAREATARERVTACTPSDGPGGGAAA
UniProt Q13547, sequence (whole entry, looked up): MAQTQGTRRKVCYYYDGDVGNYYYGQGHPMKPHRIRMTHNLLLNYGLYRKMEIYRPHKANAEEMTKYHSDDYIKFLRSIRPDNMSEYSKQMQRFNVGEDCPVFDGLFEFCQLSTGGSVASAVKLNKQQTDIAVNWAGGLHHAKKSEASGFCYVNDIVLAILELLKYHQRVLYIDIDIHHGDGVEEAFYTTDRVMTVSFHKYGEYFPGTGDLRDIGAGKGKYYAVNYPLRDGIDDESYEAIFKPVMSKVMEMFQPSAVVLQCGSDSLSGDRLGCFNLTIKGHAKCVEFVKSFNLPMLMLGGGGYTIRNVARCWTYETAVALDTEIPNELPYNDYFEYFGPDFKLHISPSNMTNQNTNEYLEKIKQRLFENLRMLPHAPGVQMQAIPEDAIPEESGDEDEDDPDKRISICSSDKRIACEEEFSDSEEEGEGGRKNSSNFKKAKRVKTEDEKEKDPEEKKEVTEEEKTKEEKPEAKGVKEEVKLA
UniProt Q9NR20, sequence (whole entry, looked up): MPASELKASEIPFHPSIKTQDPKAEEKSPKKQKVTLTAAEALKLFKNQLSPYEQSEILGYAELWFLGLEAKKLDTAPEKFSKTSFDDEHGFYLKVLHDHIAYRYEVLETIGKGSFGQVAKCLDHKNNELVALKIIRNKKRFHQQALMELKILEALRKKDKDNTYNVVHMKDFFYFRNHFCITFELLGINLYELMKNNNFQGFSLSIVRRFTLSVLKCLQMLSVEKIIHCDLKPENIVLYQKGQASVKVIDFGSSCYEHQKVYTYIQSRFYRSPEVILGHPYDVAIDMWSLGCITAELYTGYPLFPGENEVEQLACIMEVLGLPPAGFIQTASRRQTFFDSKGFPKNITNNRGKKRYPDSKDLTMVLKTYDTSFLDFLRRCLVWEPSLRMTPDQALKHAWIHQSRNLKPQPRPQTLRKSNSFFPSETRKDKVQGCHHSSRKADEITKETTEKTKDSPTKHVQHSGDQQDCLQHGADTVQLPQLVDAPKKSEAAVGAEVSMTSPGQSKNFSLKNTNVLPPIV
UniProt P18421, sequence (whole entry, looked up): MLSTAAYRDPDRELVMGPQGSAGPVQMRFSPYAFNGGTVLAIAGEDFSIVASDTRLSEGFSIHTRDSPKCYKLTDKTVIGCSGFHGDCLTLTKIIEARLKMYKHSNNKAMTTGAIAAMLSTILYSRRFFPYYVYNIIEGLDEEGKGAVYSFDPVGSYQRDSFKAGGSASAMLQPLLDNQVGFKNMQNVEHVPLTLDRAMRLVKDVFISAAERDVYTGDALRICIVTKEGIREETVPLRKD
UniProt P49840, sequence (whole entry, looked up): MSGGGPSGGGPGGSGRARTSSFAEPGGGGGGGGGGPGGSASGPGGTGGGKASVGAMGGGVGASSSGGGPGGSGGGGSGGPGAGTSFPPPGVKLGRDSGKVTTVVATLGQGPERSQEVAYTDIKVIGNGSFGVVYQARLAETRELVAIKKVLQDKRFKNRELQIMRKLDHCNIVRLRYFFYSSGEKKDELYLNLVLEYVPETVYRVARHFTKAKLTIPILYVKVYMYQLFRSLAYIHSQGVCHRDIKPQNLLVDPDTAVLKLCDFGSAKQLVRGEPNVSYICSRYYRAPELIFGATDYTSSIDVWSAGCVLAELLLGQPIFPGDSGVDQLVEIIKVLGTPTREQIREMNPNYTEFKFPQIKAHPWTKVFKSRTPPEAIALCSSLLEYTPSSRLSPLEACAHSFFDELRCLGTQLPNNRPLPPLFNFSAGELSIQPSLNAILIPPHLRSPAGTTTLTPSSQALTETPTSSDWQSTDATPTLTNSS
UniProt P28064, sequence (whole entry, looked up): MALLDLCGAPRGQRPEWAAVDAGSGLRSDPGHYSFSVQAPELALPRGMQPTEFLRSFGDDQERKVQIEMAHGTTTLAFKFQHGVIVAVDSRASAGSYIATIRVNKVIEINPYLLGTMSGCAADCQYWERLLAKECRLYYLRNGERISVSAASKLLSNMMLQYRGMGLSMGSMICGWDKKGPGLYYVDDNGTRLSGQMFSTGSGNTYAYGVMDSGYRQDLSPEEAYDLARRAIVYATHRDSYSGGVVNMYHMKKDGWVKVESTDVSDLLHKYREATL

`CN1CCCNC(=O)c2cccc(c2)C(=O)NCCCN(C)CCCNc2cccc3c2C(=O)c2cccc(c2C3=O)NCCC1`: “log2 fold change” -0.411 (SAS; RNA-Seq, item: POLR2A mRNA; 1 µM, 6 h; relative to: untreated cells).
The pIC50 of `Cc1c(Cc2cc(Cl)cc(O[C@@H](C)C(=O)O)c2)c2ccc(C(=O)N[C@@H](C)c3ccc(C(C)(C)C)cc3)cc2n1C` is reported as 8.70 (PPARG; ligand displacement, TR-FRET).
`Cc1nn(-c2cccc(N)c2)c(=O)c2cnc(Nc3ccc(N4CCNCC4)cc3)nc12` gave a pIC50 of under 5.00 (Dual specificity tyrosine-phosphorylation-regulated kinase 4 (DYRK4, Homo sapiens, UniProt Q9NR20); enzyme activity, inhibitor).
Under “revertant fold increase”, `CC(C)OCCOCc1ccc(OCC(O)CN(N=O)C(C)C)cc1` (stereo not shown) is recorded as 0.8 fold (Salmonella typhimurium; Ames test; TA1537; 1580 µg/plate, 30 % hamster S9; relative to: solvent control).
`Cc1c(Cc2cccc(OC(C)C(=O)O)c2)c2ccc(C(=O)NC(C)c3ccc(C(C)(C)C)cc3)cc2n1C` (mixture of isomers) gave a pIC50 of 6.92 (PPARG; ligand displacement, TR-FRET).
`O=C(Nc1ccccc1C(=O)N1CCCC1)C(C(F)(F)F)C(F)(F)F` gave a pIC50 of 4.74 (Rhomboid protease AarA; enzyme activity, inhibitor, fluorescence).
For `CCCCN(CCc1ccccc1)CCc1cccc(O)c1`, the pIC50 was under 4.70 (Delta-type opioid receptor (OPRD1, Homo sapiens, UniProt P41143); β-arrestin recruitment, antagonist).
`COc1ccccc1CNC(=O)C(C(F)(F)F)C(F)(F)F` gave a pIC50 of 5.10 (Rhomboid protease AarA; enzyme activity, inhibitor, fluorescence).
`CNS(=O)(=O)Nc1nccc(Cc2c(C)c3ccc(Oc4ncccc4F)cc3oc2=O)c1F` gave a pIC50 of under 6.00 (SU-DHL-2; cell viability; 7 days).
With `Cc1ccc(CNC(=O)[C@@H](NC(=O)[C@H](CCc2ccccc2)NC(=O)[C@@H](NC(=O)c2cnc(C)cn2)C(C)(C)C)C(C)C)cc1` the pIC50 was 6.29 (Psmb1/Psmb8 (Rattus norvegicus, UniProt P18421+P28064); enzyme activity, inhibitor; with: Ac-ANW-aminocoumarin, PA28α 12 nM).
With `Cc1c(Cc2cccc(OC(C)(C)C(=O)O)c2)c2ccc(C(=O)N[C@@H](C)c3ccc(C(C)(C)C)cc3)cc2n1CC1CCC1` the pIC50 was 8.50 (PPARG; ligand displacement, TR-FRET).
With `Cc1cc(C)c(S(=O)(=O)N(CC(=O)O)c2ccc(Nc3ccnc(N4CCCC4)n3)cc2)c(C)c1` the pIC50 was under 4.00 (Glycogen synthase kinase-3 alpha (GSK3A, Homo sapiens, UniProt P49840); enzyme activity, inhibitor).
For `Nc1ncc(-c2cc(-c3cnn(CC(F)(F)F)c3)ncc2F)nc1C(=O)NC1CNCC(F)C1` (stereo not shown), the remaining binding was 72% (SNARK; KINOMEscan competition binding; 1 µM; relative to: DMSO control).
`NCCCCCC(=O)N1CCc2cc(NC(=O)c3ccc(CN(C(=O)c4ccc5c(c4)OCC(=O)N5)C4CC4)cc3)ccc2C1` has a pIC50 of about 6.26 (Histone-lysine N-methyltransferase NSD2 (NSD2, Homo sapiens, UniProt O96028); ligand displacement, TR-FRET).
`Cc1nc2c(F)cc(-c3nc(Nc4ccc(CNC(=O)CCCCCCC(=O)NO)cc4)ncc3F)cc2n1C(C)C` gave a pIC50 of 7.59 (Histone deacetylase 1 (HDAC1, Homo sapiens, UniProt Q13547); enzyme activity, inhibitor).
`CCc1cccc([C@H](C)NC(=O)c2ccc3c(Cc4cccc(OC(C)(C)C(=O)O)c4)c(C)n(C)c3c2)c1` has a pIC50 of 9.00 (PPARG; ligand displacement, TR-FRET).
For `COC1CN([C@H]2CC[C@H]([C@@]3(C)Oc4c(Cl)cc(C(=O)NCc5c(SC)cc(C)[nH]c5=O)c(C)c4O3)CC2)C1`, “log2 fold change” read 0.964 (RNA-seq, item: CDKL1 mouse homolog; mouse, HT-1376 xenograft, whole blood; dose not given; relative to: vehicle).
With `C=C(NC(=O)c1csc(-c2nc3c(cc2O)-c2nc(cs2)C(=O)NC(C(C)O)C(=O)NC(=C(C)OC)c2nc(cs2)C(=O)NC2c4nc(cs4)C(=O)NC(COC(=O)c4c5c6c(cccc6n4O)COC(=O)C(OC4CC(C)(O)C(N(C)C)C(C)O4)C2OC5)c2nc-3cs2)n1)C(N)=O` (stereo not shown) the clearance was 164 mL/h/kg (cynomolgus monkey, male, plasma; intravenous infusion, 3 mg/kg single dose).
`Cc1ncsc1-c1ccc(C(C)NC(=O)C2CC(O)CN2C(=O)C(NC(=O)CCCCCCCCCCN2CCCC(Nc3ncc(Cl)c(Nc4ccccc4S(=O)(=O)C(C)C)n3)C2)C(C)(C)C)cc1` (stereo not shown): “log2 fold change” -1.84 (22Rv1; RNA-seq, item: RAD52 mRNA; concentration not given; relative to: DMSO).
With `Cc1c(Cc2cc(F)cc(OC(C)(C)C(=O)O)c2)c2ccc(C(=O)N[C@@H](C)c3cc(F)cc(C(C)(C)C)c3)cc2n1CC(C)C` the pIC50 was 8.05 (PPARG; ligand displacement, TR-FRET).
The pIC50 of `Cc1ccc(C(=O)Nc2ccnc(S(N)(=O)=O)c2)c(N2CCCC(F)(F)CC2)n1` is reported as under 4.47 (Sodium channel protein type 1 subunit alpha (SCN1A, Homo sapiens, UniProt P35498); ion current).
For `O=C1CC(c2ccccc2)N1S(=O)(=O)c1cccc(-c2ccccc2)c1` (stereo not shown), the pIC50 was 4.89 (Rhomboid protease AarA; enzyme activity, inhibitor, fluorogenic peptide; 68 min pre-incubation).
The pIC50 of `Cc1nnc(-c2ccc(CC(=O)NCCOCCOCC(=O)NC(CCN3C4CCC3CC(n3c(C)nnc3C(C)C)C4)c3ccccc3)cc2)nn1` (stereo not shown) is reported as 7.89 and 7.50 and 7.53 (C-C chemokine receptor type 5 (CCR5, Homo sapiens, UniProt P51681, Y184K); calcium mobilisation, inhibitor; HEK293T expressing CCR5; with: PSC-RANTES).
`O=C(COc1ccccc1NC(=O)C(C(F)(F)F)C(F)(F)F)NCC1CC1` gave a pIC50 of 5.13 (Rhomboid protease AarA; enzyme activity, inhibitor, fluorescence).
`C=CC(=O)Nc1cccc(Cn2ncc3cnc(Nc4cnn(CCOC)c4)nc32)c1` — result for “percent of control”: 97% (ULK2 human; binding, KINOMEscan; 100 nM; lower = stronger binding).

Some of these lines once more:
`O=C(COc1ccccc1NC(=O)C(C(F)(F)F)C(F)(F)F)NCC1CC1` gave a pIC50 of 5.13 (Rhomboid protease AarA; enzyme activity, inhibitor, fluorescence).
`C=CC(=O)Nc1cccc(Cn2ncc3cnc(Nc4cnn(CCOC)c4)nc32)c1` — result for “percent of control”: 97% (ULK2 human; binding, KINOMEscan; 100 nM; lower = stronger binding).
